Assay results gathered from unrelated publications.
Lines come from different studies, so protocols differ. Values joined by “and” are separate records of one study, mostly repeats; a detail may differ. ± marks the error that the study gave.
Target: Cytochrome P450 2C9 (CYP2C9, Homo sapiens, UniProt P11712)
UniProt P11712, sequence (whole entry, looked up): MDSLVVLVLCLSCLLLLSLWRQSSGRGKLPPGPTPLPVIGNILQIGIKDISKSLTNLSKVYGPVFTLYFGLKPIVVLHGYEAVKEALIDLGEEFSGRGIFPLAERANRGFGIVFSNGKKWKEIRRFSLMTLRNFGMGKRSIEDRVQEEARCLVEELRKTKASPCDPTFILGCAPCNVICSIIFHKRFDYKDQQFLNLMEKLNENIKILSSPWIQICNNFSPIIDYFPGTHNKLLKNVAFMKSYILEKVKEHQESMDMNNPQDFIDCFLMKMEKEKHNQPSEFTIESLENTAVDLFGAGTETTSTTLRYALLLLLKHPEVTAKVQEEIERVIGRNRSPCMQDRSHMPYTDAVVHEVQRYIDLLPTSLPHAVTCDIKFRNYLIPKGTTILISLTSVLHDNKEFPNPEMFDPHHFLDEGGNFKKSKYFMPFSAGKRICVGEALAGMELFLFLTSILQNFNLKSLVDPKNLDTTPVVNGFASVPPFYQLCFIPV

N#Cc1cc(NC(=O)C2c3ccccc3C(=O)N(CC(F)(F)F)C2c2cccnc2)ccc1F (racemic)
inhibition (enzyme activity, inhibitor; liver microsomes; 10 µM): 25%

CNC(=O)C1CCCN(C(=O)C2CC3CCC2N3C(=O)[C@@H]2C[C@@H](O)CN2C(=O)NCc2cccc(Cl)c2F)C1 (mixture of isomers)
remaining activity (preincubation without NADPH; human; 0.617 µM; reference: negative control): 93.7% and 98.1% and 98.2%

O=C(CN1CN(c2cccc(F)c2)C2(CCN(C(=O)c3cnc4[nH]ncc4c3)CC2)C1=O)NCC(F)(F)F
IC50 (enzyme activity, inhibitor): 17 µM

Nc1nc(SCc2ccc(Cl)cc2)nn1S(=O)(=O)c1ccc2c(c1)CCO2
inhibition (enzyme activity, inhibitor; human, liver microsomes; 10 µM): 82%

O=C(CN1CN(c2ccccc2)C2(CCN(C(=O)c3ccc4[nH]ncc4c3)CC2)C1=O)Nc1ccccn1
IC50 (enzyme activity, inhibitor): > 50 µM

COC1C(c2ccc(Cl)c(Cc3ccc(OC4CCOC4)cc3)c2)OC(CO)C(O)C1O (stereo not shown)
inhibition (enzyme activity, inhibitor; human, liver microsomes; 10 µM, 10 min): 16.8%

O=C(CN1CN(c2ccccc2)C2(CCN(C(=O)c3ccc4[nH]ncc4n3)CC2)C1=O)NCC(F)(F)F
IC50 (enzyme activity, inhibitor): 11 µM

C=C(NC(=O)c1csc(-c2nc3c(cc2O)-c2nc(cs2)C(=O)NC(C(C)O)C(=O)NC(=C(C)OC)c2nc(cs2)C(=O)NC2c4nc(cs4)C(=O)NC(COC(=O)c4c5c6c(cccc6n4O)COC(=O)C(OC4CC(C)(O)C(N(C)C)C(C)O4)C2OC5)c2nc-3cs2)n1)C(N)=O (stereo not shown)
remaining activity (enzyme activity, inhibitor, substrate cocktail; pooled human liver microsomes; up to 50 µM, pH 7.4): > 70%

COc1ccc2c(c1)C(C)(C)C1=C(Cl)C(=O)C(Cl)=CC1=N2
Vmax (O-demethylation, substrate; pH 7.4, 37 °C): 1.31 ± 0.04 nmol/min/nmol P450

O=C(NS(=O)(=O)c1cccs1)c1cc2ccccc2n1Cc1ccc(Br)c2ccccc12
IC50 (inhibitor): 2.77 µM

O=C(CN1CN(c2ccccc2)C2(CCN(C(=O)c3ccc4[nH]ncc4c3)CC2)C1=O)N(CCO)CC(F)(F)F
IC50 (enzyme activity, inhibitor): 1.1 µM

Cc1nc2ccc(S(=O)(=O)n3nc(SCc4ccc(Cl)cc4)nc3N)cc2s1
inhibition (enzyme activity, inhibitor; human, liver microsomes; 10 µM): 88%

C=CC(=O)Nc1cc(Nc2nccc(-c3cn(C)c4ccccc34)n2)c(OCC(F)(F)F)nc1N(C)CCNC
contribution to metabolite formation (substrate; 3 µM, 60 min, 2C9 isoform, liver abundance-normalized): 12.9%
